Results collected from several papers.
Numbered parts are unrelated; each lists some results of a single study.
UniProt P23443, sequence (whole entry, looked up): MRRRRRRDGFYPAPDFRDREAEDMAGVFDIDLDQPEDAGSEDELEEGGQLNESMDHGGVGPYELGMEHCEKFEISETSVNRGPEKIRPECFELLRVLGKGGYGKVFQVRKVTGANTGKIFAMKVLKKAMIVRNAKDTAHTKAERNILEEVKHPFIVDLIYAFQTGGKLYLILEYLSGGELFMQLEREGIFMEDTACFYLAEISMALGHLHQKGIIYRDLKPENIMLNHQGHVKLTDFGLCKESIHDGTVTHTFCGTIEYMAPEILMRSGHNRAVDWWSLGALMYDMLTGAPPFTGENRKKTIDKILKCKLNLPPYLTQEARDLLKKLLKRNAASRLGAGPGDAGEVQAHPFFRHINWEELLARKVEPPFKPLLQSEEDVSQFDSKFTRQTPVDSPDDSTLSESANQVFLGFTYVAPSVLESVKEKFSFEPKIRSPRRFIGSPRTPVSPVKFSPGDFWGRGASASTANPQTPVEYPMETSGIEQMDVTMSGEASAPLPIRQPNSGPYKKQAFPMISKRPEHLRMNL
UniProt P42336, sequence (whole entry, unmodified, looked up): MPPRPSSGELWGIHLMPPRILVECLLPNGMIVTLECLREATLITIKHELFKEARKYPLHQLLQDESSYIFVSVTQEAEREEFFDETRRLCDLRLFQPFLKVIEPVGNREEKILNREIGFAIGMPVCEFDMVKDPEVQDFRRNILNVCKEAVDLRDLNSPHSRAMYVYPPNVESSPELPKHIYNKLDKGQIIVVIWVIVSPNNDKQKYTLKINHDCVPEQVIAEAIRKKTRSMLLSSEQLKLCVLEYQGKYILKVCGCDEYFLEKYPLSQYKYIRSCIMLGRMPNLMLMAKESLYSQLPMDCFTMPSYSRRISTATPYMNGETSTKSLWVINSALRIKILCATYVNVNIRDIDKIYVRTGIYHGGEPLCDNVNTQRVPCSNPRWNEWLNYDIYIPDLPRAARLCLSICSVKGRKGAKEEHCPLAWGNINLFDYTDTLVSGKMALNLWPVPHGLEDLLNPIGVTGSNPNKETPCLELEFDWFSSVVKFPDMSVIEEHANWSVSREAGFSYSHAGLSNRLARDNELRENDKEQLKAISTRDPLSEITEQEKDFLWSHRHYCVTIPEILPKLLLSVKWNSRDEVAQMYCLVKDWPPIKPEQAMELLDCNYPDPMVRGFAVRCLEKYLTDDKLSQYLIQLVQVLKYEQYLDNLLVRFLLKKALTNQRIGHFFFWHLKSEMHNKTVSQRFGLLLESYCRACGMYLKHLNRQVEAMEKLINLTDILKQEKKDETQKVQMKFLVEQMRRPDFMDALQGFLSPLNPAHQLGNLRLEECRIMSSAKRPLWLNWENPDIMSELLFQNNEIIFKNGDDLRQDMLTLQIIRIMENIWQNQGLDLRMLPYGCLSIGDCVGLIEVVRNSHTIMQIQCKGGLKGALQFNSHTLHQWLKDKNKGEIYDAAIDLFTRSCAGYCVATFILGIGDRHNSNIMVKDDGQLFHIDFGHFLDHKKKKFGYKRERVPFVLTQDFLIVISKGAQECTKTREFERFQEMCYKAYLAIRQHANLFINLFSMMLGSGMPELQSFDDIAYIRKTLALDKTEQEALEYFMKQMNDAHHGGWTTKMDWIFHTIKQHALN
UniProt P49336, sequence (whole entry, looked up): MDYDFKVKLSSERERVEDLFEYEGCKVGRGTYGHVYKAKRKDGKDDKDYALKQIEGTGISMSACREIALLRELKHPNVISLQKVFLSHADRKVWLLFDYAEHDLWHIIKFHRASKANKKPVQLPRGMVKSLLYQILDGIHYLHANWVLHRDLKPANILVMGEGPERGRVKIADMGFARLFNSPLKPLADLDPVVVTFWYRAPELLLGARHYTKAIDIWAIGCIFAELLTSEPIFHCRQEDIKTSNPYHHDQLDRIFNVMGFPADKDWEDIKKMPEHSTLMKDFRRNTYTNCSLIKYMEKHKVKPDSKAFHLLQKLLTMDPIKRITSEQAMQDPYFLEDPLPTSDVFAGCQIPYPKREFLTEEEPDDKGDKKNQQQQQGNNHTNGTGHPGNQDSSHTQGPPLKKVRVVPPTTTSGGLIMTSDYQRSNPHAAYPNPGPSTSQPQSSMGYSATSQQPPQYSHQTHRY

Sample 1
SMILES: CN(C)C(=O)Cn1cc(-c2nc(C3(c4ccc(-c5cnc(N)nc5)cc4)CC3)no2)cn1
Read-out: cell-free assay
Method: competition with immobilised ligand
Concentration: 1 µM
target	remaining binding [%]
EGFR (Homo sapiens, UniProt P00533)	93
PRKAA2 (Homo sapiens, UniProt P54646)	86
RPS6KB1 (Homo sapiens, UniProt P23443)	91
MAPK12 (Homo sapiens, UniProt P53778)	62
ACVR1 (Homo sapiens, UniProt Q04771)	95
MAP3K2 (Homo sapiens, UniProt Q9Y2U5)	93
CDK16 (Homo sapiens, UniProt Q00536)	80
COQ8B (Homo sapiens, UniProt Q96D53)	100
ERBB2 (Homo sapiens, UniProt P04626)	80
PIM3 (Homo sapiens, UniProt Q86V86)	100
HUNK (Homo sapiens, UniProt P57058)	96
Tyrosine-protein kinase ABL1, phosphorylated (ABL1, Homo sapiens, UniProt P00519, F317L)	85
ULK3 (Homo sapiens, UniProt Q6PHR2)	68
PRKCH (Homo sapiens, UniProt P24723)	91
PIK3CA (Homo sapiens, UniProt P42336, C420R)	95
MINK1 (Homo sapiens, UniProt Q8N4C8)	91
OXSR1 (Homo sapiens, UniProt O95747)	82
CDK8 (Homo sapiens, UniProt P49336)	100
EPHA3 (Homo sapiens, UniProt P29320)	89
EPHA6 (Homo sapiens, UniProt Q9UF33)	99
MAP2K3 (Homo sapiens, UniProt P46734)	71
ROS1 (Homo sapiens, UniProt P08922)	87
MAP2K5 (Homo sapiens, UniProt Q13163)	72
IRAK1 (Homo sapiens, UniProt P51617)	77
TLK1 (Homo sapiens, UniProt Q9UKI8)	100

Sample 2
SMILES: C=CCc1ccc(O)c(-c2ccc(O)c(CC=C)c2)c1
Read-out: chloride current
ANO1 del476-501/K629A: Anoctamin-1 (ANO1, Homo sapiens, UniProt Q5XXA6, del476-501/K629A)
UniProt Q5XXA6, sequence (whole entry, unmodified, looked up): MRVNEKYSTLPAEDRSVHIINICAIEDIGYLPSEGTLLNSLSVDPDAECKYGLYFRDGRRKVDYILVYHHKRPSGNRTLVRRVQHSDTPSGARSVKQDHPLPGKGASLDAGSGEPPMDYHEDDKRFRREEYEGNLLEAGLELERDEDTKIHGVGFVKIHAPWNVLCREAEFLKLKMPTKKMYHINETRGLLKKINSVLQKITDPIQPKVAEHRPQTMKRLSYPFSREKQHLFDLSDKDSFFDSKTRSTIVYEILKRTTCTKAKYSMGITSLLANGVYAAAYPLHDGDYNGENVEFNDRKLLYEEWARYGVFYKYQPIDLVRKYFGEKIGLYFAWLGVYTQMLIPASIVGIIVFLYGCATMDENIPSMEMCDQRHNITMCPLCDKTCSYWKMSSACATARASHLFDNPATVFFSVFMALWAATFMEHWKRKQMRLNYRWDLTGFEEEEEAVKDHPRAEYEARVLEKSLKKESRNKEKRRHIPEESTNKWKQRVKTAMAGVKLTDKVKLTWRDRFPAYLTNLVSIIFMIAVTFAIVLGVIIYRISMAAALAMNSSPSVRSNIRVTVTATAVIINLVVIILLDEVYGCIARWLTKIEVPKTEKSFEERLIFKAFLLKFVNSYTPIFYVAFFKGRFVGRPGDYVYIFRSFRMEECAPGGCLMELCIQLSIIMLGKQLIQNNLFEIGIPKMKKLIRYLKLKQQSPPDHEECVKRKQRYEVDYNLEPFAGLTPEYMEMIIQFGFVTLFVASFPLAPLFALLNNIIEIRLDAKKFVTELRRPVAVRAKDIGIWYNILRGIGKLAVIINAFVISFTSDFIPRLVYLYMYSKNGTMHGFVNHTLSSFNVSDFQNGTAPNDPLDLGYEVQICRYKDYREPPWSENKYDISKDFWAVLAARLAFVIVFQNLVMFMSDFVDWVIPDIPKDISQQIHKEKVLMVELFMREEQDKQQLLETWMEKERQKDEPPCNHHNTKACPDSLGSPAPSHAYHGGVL
ANO1 del476-501: Anoctamin-1 (ANO1, Homo sapiens, UniProt Q5XXA6, del476-501)
ANO1 del476-501/F628A: Anoctamin-1 (ANO1, Homo sapiens, UniProt Q5XXA6, del476-501/F628A)
target	method	concentration	notes	with	normalized current
ANO1 del476-501/K629A	inside-out patch clamp	10 µM	membrane voltage -40 mV		-0.187
ANO1 del476-501	whole-cell voltage clamp	10 µM	wild type, concentration-response at 60 mV	4 µM Ca2+	0.164
ANO1 del476-501/F628A	whole-cell voltage clamp	10 µM	I-V at 80 mV	4 µM Ca2+	0.544
ANO1 del476-501/F628A	whole-cell voltage clamp	30 µM	concentration-response at -80 mV	4 µM Ca2+	-0.362
Anoctamin-1 (ANO1, Homo sapiens, UniProt Q5XXA6)	inside-out patch clamp	10 µM	membrane voltage 80 mV		0.642
ANO1 del476-501	whole-cell voltage clamp	3 µM	wild type, I-V at -100 mV	4 µM Ca2+	-0.641
ANO1 del476-501/K629A	inside-out patch clamp	10 µM	membrane voltage 0 mV		-0.0009

Sample 3
Target: Beta-1 adrenergic receptor (ADRB1, Homo sapiens, UniProt P08588)
UniProt P08588, sequence (whole entry, looked up): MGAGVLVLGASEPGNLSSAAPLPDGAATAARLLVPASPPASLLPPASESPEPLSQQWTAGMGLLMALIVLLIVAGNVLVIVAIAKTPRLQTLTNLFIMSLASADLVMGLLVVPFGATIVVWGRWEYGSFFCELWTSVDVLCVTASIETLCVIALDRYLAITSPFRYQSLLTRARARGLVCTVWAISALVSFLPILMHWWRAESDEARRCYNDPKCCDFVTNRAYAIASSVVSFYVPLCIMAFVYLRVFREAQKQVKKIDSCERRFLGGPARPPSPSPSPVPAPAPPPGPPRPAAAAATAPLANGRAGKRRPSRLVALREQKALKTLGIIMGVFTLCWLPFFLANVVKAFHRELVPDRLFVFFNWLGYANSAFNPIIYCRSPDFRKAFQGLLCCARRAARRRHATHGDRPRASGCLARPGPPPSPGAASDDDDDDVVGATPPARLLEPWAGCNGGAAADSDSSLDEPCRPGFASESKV
Mode: agonist
Structure (SMILES)	Emax [%]
OC(COc1ccccc1CNCC1CCOCC1)CN1CCSCC1 (centres unmarked)	109
CCN(CC)C(=O)Nc1ccc(OCC(O)CNC(C)(C)C)c(C(C)=O)c1 (centres unmarked)	87
CCCC(=O)c1cc(F)ccc1OCC(O)CNC(C)(C)C (centres unmarked)	91.2
CCCN(CCc1ccccc1)C1CCc2c(O)cccc2C1 (centres unmarked)	68.6
OC(COc1ccccc1)CN1CCN(Cc2cnc3ccccc3c2)CC1 (centres unmarked)	86.6
COc1ccccc1N1CCN(CC[C@@H]2CC[C@H](O)[C@@H](C(=O)NC3CCCCC3)O2)CC1	91.8
COc1cc(NC(=O)CCN2CCC(OC(=O)Nc3ccccc3-c3ccccc3)CC2)c(Cl)cc1CNC[C@H](O)c1ccc(O)c2[nH]c(=O)ccc12	91.5
CC(C)(C)NC[C@@H](O)c1ccc(O)c(CO)n1	87.6

Sample 4
Compound: CN1CCN(c2ccc3nc(-c4c(N)c5c(F)cccc5[nH]c4=O)[nH]c3c2)CC1
Read-out: enzyme activity
Mode: inhibitor
Concentration: 0.5 µM
Baseline: control
target	remaining activity [%]
GRK6 (Homo sapiens, UniProt P43250)	103
RPS6KB1 (Homo sapiens, UniProt P23443)	77.3
GRK2 (Homo sapiens, UniProt P25098)	98.1
CSK (Homo sapiens, UniProt P41240)	88.4
SGK1 (Homo sapiens, UniProt O00141)	88.2
BMX (Homo sapiens, UniProt P51813)	70.1
PRKCE (Homo sapiens, UniProt Q02156)	101
PRKCG (Homo sapiens, UniProt P05129)	86.9

Sample 5
Cell line: HH
Concentration: 2 µM
Time: 48 h
Baseline: untreated
Compound	viability
CC(C)(C)c1cnc(CSc2cnc(NC(=O)C3CCNCC3)s2)o1	8.03%
O=c1cc(-c2cccc3c2Sc2ccccc2S3)oc(N2CCOCC2)c1	94.9%
O=C(Nc1cccc(Nc2ncc(Br)c(NCCc3cnc[nH]3)n2)c1)N1CCCC1	62.4%
Nc1cccc(S(=O)(=O)N2CCCN(S(=O)(=O)c3ccc4c(c3)OCCO4)CC2)c1	56.4%
C[C@]1(O)C[C@@H](c2nc(-c3ccc4ccc(-c5ccccc5)nc4c3)c3c(N)nccn32)C1	85.7%
Cc1cn(-c2cc(NC(=O)c3ccc(C)c(Nc4nccc(-c5cccnc5)n4)c3)cc(C(F)(F)F)c2)cn1	64.4%
COC(=O)Nc1ccc(-c2nc(N3CCOCC3)c3cnn(C4CCN(C(=O)OC)CC4)c3n2)cc1	72.8%
Cn1cnc2c(F)c(Nc3ccc(Br)cc3F)c(C(=O)NOCCO)cc21	98.5%
CCc1cnn2c(NCc3ccc[n+]([O-])c3)cc(N3CCCC[C@H]3CCO)nc12	12.2%
COc1cc(F)c(F)c(Nc2ccc(I)cc2F)c1NS(=O)(=O)C1(C[C@H](O)CO)CC1	111%
O=C(NC(NC(=S)Nc1ccc(F)c([N+](=O)[O-])c1)C(Cl)(Cl)Cl)C(c1ccccc1)c1ccccc1 (centres unmarked)	81.1%

Repeated from above (sample 1):
target	remaining binding [%]
PIM3 (Homo sapiens, UniProt Q86V86)	100
MAP2K5 (Homo sapiens, UniProt Q13163)	72
ROS1 (Homo sapiens, UniProt P08922)	87
PRKCH (Homo sapiens, UniProt P24723)	91
